# Measurements of several laboratories.
# Parts stem from different laboratories: compare values within a part only. Several values in a cell are separate wells, animals, samples, runs or records.

# Series 1 — read-out: enzyme activity; action: inhibitor; concentration: 0.5 µM; relative to: control
# Target: Serine/threonine-protein kinase PAK 5 (PAK5, Homo sapiens, UniProt Q9P286)
# Chain of UniProt Q9P286 (whole entry, looked up): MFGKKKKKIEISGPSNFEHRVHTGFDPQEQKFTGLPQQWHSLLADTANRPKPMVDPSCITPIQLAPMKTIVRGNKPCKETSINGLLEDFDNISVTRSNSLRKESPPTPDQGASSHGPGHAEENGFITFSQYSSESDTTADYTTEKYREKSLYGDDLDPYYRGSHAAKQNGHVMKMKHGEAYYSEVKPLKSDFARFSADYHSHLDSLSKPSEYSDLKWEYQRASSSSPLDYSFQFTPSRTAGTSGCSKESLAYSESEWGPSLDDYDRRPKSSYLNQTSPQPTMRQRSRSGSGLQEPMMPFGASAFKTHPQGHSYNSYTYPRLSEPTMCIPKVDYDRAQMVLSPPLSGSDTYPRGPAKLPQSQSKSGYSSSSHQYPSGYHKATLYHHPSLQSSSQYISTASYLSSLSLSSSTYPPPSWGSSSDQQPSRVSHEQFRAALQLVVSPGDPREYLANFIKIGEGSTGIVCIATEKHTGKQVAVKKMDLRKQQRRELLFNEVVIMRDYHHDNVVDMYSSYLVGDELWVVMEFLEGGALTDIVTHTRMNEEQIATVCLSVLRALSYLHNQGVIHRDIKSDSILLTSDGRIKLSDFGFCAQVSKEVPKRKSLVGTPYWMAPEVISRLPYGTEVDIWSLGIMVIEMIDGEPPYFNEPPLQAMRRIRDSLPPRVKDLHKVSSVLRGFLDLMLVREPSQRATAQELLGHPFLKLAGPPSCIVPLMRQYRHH
SMILES,remaining activity [%]
CCOc1nc(NC(=O)Cc2cc(OC)ccc2OC)cc(N)c1C#N,107
c1ccc(-c2cnc(Nc3ccc(OCCN4CCCC4)cc3)s2)cc1,87.2
N#Cc1c(NC(=O)c2cccc3ccccc23)sc2c1CCCC2,103
Cn1nc2c3c(cccc31)C(=O)c1ccccc1-2,102
COc1cc2ncnc(Nc3cccc(Cl)c3)c2cc1OC,83
COc1cc2ncnc(Nc3ccc(O)c(Br)c3)c2cc1OC,97.7
O=C1c2ccccc2-c2n[nH]c3cccc1c23,89.1
CN(C)C[C@H]1CCn2c(c(C3=C(c4cn(C)c5ccccc45)C(=O)NC3=O)c3ccccc32)C1,100
CN([C@@H](Cc1ccc(OS(=O)(=O)c2cccc3cnccc23)cc1)C(=O)N1CCN(c2ccccc2)CC1)S(=O)(=O)c1cccc2cnccc12,103
Ic1cccc(CSc2nnc(-c3ccncc3)o2)c1,99.3
CCN(CC)C(=O)c1ccc(Nc2nc(OCC3CCCCC3)c3[nH]cnc3n2)cc1,49.1

# Series 2 — technique: RNA Bind-n-Seq; molecule type: RNA; sample: in vitro; concentration: 90 pmol; setting: 4-mer, random 30-nt RNA, single round; added: 3 µM DMDA-PatA, 2 mM ADP, 2 mM phosphate; relative to: input library; direction: higher = stronger binding
# Target: Eukaryotic initiation factor 4A-I (EIF4A1, Homo sapiens, UniProt P60842, residues 1-406, full length assumed)
# Chain of UniProt P60842 (whole entry, looked up): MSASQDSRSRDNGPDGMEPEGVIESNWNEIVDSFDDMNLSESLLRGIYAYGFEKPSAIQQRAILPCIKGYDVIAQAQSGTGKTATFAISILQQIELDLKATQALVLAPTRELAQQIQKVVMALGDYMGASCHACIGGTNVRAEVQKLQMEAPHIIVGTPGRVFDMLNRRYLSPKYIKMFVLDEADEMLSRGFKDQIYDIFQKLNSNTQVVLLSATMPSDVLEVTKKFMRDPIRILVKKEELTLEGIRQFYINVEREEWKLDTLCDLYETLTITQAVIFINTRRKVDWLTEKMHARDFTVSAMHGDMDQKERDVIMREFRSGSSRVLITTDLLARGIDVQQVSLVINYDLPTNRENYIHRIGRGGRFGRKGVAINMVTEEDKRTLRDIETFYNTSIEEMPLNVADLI
Oligonucleotide,4-mer enrichment [fold]
ACAC,0.66
ACGG,0.779
GGCU,0.63
CAAC,0.734
CAUA,0.765
UGAC,0.718
GACG,0.762
GAUA,0.913

# Series 3 — host: human; sample: microsomes or S9; concentration: 2 µM; time: 0.5 h
SMILES,remaining compound [%]
Cc1cccc(C)c1NC(=O)C1(NC(=O)c2cc[nH]n2)CCCCC1,88.5
C[C@H](O)CNS(=O)(=O)C1CCc2cc(Br)ccc2C1 (stereo partly drawn),89
Clc1ccc(-c2ccc(CNCCOc3ccccn3)o2)c(Cl)c1,39.6
COCCN(CC1CCCN(C2Cc3ccccc3C2)C1)C(=O)Cc1c[nH]c2ccccc12 (stereo not drawn),5.53

# Single results of other studies
Structure (SMILES),host,sample,route,dose,measurement,result
COc1ccc(-c2c(Nc3ccccn3)[nH]c3c(C4=CCCCC4)c(-c4ccccc4)nn3c2=O)cc1,human,plasma,oral,200 mg twice daily,Cmin,8900 ng/mL and 9580 ng/mL

# Repeated from above (series 2):
Oligonucleotide,4-mer enrichment [fold]
CAUA,0.765
ACAC,0.66
